Measurements from different studies.
Every numbered part comes from another study and shows a few of its results, in no order. Positions count from the first letter of the parent shown.
Chain of UniProt P42336 (whole entry, unmodified, looked up): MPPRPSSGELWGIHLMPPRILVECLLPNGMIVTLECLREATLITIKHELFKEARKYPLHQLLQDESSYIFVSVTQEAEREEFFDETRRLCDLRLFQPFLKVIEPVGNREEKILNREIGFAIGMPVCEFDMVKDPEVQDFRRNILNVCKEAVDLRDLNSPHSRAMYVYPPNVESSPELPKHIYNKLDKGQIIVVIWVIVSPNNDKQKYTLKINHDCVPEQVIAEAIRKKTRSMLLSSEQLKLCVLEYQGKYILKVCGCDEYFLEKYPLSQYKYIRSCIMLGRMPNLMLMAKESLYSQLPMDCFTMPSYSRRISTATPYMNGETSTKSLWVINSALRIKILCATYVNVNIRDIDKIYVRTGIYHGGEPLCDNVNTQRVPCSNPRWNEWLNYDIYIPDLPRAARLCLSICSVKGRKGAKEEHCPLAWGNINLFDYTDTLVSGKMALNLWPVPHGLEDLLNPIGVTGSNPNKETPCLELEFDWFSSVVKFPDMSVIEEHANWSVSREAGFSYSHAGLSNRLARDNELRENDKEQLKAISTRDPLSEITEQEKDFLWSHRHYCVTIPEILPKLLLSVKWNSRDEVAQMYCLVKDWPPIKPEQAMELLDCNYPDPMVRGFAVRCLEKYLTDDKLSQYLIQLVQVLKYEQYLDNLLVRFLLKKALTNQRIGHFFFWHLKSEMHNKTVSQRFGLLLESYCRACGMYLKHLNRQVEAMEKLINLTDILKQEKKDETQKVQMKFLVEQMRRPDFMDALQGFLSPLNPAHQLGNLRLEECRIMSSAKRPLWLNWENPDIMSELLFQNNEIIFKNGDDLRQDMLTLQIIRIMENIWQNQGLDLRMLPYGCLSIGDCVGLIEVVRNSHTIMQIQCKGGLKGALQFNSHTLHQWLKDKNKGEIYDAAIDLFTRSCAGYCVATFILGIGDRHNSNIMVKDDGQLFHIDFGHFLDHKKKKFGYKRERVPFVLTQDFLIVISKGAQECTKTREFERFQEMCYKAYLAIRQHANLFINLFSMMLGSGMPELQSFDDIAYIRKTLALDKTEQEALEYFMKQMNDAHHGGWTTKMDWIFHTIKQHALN
Chain of UniProt P06241 (whole entry, looked up): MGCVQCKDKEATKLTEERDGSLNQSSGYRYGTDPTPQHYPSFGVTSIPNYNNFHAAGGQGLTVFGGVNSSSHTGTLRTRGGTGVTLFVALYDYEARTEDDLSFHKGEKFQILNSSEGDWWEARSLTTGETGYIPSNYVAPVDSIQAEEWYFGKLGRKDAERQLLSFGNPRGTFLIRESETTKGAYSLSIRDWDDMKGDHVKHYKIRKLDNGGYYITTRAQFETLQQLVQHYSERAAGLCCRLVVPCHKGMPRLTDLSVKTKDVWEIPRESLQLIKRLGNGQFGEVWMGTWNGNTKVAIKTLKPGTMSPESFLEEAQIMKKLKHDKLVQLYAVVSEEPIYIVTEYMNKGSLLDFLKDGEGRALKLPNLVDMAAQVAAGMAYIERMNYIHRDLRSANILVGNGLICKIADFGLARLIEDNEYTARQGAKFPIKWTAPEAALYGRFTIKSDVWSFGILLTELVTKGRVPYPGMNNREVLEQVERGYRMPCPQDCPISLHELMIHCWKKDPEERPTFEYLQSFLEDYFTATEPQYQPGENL
Chain of UniProt P00519 (whole entry, unmodified, looked up): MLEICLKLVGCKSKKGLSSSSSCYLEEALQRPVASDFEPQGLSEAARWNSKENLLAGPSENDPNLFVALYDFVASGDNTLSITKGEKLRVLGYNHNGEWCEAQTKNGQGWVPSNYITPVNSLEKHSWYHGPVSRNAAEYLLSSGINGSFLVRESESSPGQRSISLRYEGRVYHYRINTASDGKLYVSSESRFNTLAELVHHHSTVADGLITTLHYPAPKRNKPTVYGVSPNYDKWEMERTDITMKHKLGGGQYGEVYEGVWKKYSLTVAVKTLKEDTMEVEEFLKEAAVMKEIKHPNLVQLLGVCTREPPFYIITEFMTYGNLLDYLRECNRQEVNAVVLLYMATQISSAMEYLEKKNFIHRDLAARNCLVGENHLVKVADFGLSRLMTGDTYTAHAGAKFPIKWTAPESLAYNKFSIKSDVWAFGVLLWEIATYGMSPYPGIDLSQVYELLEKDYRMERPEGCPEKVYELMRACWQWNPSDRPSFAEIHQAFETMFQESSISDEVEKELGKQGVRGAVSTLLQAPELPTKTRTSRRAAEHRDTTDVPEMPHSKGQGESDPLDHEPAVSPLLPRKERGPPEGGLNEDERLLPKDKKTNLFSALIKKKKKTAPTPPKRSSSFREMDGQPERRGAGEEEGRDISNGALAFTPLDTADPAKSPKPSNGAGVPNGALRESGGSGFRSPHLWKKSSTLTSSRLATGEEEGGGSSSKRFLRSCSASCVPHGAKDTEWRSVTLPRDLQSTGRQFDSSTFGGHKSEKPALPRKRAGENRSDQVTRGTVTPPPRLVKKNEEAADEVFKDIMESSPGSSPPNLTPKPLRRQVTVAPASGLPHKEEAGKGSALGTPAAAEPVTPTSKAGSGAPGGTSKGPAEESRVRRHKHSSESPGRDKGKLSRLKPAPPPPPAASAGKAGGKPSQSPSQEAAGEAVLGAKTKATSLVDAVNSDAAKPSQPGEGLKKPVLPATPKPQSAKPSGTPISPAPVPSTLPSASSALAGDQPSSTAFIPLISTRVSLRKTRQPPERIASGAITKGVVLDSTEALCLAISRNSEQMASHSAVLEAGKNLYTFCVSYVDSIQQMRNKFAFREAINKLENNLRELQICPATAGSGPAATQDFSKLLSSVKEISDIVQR
Chain of UniProt Q9BWU1 (whole entry, looked up): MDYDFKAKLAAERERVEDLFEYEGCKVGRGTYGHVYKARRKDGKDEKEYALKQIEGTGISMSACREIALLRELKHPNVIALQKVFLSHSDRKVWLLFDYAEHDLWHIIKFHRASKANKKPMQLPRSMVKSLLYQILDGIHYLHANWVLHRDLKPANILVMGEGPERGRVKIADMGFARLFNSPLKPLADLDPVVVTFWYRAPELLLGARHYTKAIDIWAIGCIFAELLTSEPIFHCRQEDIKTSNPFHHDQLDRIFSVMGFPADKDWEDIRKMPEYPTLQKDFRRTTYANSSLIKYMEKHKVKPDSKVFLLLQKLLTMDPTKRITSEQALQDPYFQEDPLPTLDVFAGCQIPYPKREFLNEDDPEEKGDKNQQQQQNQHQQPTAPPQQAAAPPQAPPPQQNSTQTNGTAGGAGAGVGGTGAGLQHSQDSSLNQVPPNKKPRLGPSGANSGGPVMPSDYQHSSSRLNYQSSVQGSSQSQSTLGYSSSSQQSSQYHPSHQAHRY
Chain of UniProt Q52WX2 (whole entry, looked up): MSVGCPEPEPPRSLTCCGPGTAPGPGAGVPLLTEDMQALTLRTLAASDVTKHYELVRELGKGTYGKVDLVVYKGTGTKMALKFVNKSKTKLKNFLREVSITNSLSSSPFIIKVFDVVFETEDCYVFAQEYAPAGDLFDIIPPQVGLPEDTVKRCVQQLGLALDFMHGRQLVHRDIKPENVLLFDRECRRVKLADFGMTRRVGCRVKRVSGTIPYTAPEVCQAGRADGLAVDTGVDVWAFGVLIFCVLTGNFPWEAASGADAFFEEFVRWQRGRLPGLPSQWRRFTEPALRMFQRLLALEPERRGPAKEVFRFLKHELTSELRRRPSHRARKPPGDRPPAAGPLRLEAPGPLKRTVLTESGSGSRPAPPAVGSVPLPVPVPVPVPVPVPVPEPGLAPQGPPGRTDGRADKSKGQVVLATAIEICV

Study 1
Structure (SMILES): Nc1c(C(=O)NCc2ccc(C(=O)NCCCC3CCCCC3)cc2)cnn1-c1ccccc1
Concentration: 0.1 µM
target	test	remaining binding [%]
Serine/threonine-protein kinase WNK1 (WNK1, Homo sapiens, UniProt Q9H4A3)	cell-free assay, competition with immobilised ligand	100
Serine/threonine-protein kinase SBK1 (SBK1, Homo sapiens, UniProt Q52WX2)	cell-free assay, competition with immobilised ligand	82
Serine/threonine-protein kinase 17A (STK17A, Homo sapiens, UniProt Q9UEE5)	cell-free assay, competition with immobilised ligand	100
Phosphatidylinositol 4,5-bisphosphate 3-kinase catalytic subunit alpha isoform (PIK3CA, Homo sapiens, UniProt P42336, Q546K)	cell-free assay, competition with immobilised ligand	96
Proto-oncogene tyrosine-protein kinase ROS (ROS1, Homo sapiens, UniProt P08922)	cell-free assay, competition with immobilised ligand	83
Phosphatidylinositol 4,5-bisphosphate 3-kinase catalytic subunit alpha isoform (PIK3CA, Homo sapiens, UniProt P42336, M1043I)	cell-free assay, competition with immobilised ligand	100
Bone morphogenetic protein receptor type-2 (BMPR2, Homo sapiens, UniProt Q13873)	cell-free assay, competition with immobilised ligand	100
Tyrosine-protein kinase ABL1, phosphorylated (ABL1, Homo sapiens, UniProt P00519, F317L)	cell-free assay, competition with immobilised ligand	100
Phosphatidylinositol 4-phosphate 3-kinase C2 domain-containing subunit beta (PIK3C2B, Homo sapiens, UniProt O00750)	cell-free assay, competition with immobilised ligand	99
Epidermal growth factor receptor (EGFR, Homo sapiens, UniProt P00533, del746-750)	cell-free assay, competition with immobilised ligand	98
Receptor-type tyrosine-protein kinase FLT3 (FLT3, Homo sapiens, UniProt P36888, D835Y)	cell-free assay, competition with immobilised ligand	100
Serine/threonine-protein kinase PLK1 (PLK1, Homo sapiens, UniProt P53350)	cell-free assay, competition with immobilised ligand	100
Serine/threonine-protein kinase Sgk1 (SGK1, Homo sapiens, UniProt O00141)	cell-free assay, competition with immobilised ligand	100
Tyrosine-protein kinase Fyn (FYN, Homo sapiens, UniProt P06241)	cell-free assay, competition with immobilised ligand	100
Serine/threonine-protein kinase PLK2 (PLK2, Homo sapiens, UniProt Q9NYY3)	cell-free assay, competition with immobilised ligand	100
Cyclin-dependent kinase 19 (CDK19, Homo sapiens, UniProt Q9BWU1)	competition binding	99

Study 2
Target: Serine/threonine-protein kinase TAO2 (TAOK2, Homo sapiens, UniProt Q9UL54)
Chain of UniProt Q9UL54 (whole entry, looked up): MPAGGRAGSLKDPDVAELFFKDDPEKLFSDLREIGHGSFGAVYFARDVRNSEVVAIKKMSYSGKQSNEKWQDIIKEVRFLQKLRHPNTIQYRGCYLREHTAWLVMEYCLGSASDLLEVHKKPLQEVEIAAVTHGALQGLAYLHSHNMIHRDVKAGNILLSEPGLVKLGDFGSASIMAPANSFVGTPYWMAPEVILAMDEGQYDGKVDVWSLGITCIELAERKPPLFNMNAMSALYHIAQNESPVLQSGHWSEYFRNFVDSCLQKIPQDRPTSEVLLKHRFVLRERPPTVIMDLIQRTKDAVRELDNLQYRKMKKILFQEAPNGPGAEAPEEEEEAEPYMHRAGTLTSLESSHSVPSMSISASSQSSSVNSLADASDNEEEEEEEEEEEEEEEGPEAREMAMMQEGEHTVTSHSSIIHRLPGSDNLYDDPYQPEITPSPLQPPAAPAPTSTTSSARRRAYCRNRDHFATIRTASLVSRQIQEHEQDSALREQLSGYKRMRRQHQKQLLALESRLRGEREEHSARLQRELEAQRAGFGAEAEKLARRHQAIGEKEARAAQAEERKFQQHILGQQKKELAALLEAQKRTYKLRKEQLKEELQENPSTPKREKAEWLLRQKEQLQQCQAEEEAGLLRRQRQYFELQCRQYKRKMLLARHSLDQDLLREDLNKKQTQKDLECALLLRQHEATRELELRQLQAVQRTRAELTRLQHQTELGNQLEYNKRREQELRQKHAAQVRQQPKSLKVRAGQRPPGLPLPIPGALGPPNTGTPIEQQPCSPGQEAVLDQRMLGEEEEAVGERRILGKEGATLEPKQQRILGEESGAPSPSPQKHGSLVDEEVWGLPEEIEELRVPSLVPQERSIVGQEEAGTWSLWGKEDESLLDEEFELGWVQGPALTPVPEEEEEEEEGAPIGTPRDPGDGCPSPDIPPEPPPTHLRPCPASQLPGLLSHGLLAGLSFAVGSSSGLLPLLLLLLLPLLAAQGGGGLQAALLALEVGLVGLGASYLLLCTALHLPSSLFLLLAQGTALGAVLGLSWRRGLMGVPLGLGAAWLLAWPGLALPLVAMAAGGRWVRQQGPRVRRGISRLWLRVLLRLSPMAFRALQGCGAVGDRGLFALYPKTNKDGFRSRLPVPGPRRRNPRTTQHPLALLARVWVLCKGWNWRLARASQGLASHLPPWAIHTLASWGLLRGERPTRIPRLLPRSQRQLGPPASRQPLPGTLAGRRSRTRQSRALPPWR
Observed: enzyme activity
Action: inhibitor
Concentration: 0.5 µM
Reference: control
SMILES	remaining activity [%]
O=C(O)c1ccc2c3c1cccc3c(=O)n1c3ccccc3nc21	95.2
NCCNc1ncc(C(N)=O)c(Nc2cccc(C(F)(F)F)c2)n1	85.9
Cn1c2ccccc2c2c3c(c4c5ccccc5n(CCC#N)c4c21)CNC3=O	13.3
C#Cc1cccc(Nc2ncnc3cc(OCCOC)c(OCCOC)cc23)c1	106
CCOC(=O)c1c(C)[nH]c(/C=C2\C(=O)Nc3ccccc32)c1C	105
COc1cc2nccc(Oc3ccc(NC(=S)NC(=O)c4ccccc4C)cc3)c2cc1OC	91.9
Cc1ccc(NC(=O)c2ccc(CN3CCN(C)CC3)cc2)cc1Nc1nc(-c2cccnc2)cs1	91.6
Cc1nc(-c2ccccc2)c(-c2ccncc2)o1	101
O=C1NC(=O)C(c2cn(CCCO)c3ncccc23)=C1c1cnccn1	88.1
Oc1ccc(-c2nc(-c3ccncc3)c(-c3ccc(F)cc3)[nH]2)cc1	94.7
Nc1ccc2ncnc(NCCc3ccc(Oc4ccccc4)cc3)c2c1	102
N#CC(C#N)=C(N)/C(C#N)=C/c1ccc(O)cc1	97.3
Nc1ncnc2n[nH]c(Nc3ccc(F)cc3)c12	97.3
Cc1ccc(Nc2nccc(N(C)c3ccc4c(C)n(C)nc4c3)n2)cc1S(N)(=O)=O	26.8

Study 3
Target: CEP164, C-terminal peptide (human)
Technique: DHFR complementation, deep sequencing
Sample: yeast
Setting: single substitutions, model-inferred values
Reference: wild type
Reading: higher = weaker binding
Parent: PDZK1, PDZ domain 2 (human); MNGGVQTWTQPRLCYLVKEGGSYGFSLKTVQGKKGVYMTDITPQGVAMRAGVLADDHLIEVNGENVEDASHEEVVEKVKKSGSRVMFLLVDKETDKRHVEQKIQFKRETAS; partner HNRVKVYRF
Variant	binding free energy change
G63M	0.305 kcal/mol
P11A	0.0411 kcal/mol
E100R	-0.0652 kcal/mol
Q31P	-0.175 kcal/mol
S83N	-0.131 kcal/mol
K80F	0.761 kcal/mol
K34Q	0.209 kcal/mol
Q6E	-0.0245 kcal/mol

Study 4
Target: ABI1, truncated, D143A, DHFR fusion (Arabidopsis thaliana)
Technique: DHFR PCA, deep sequencing
Sample: yeast
Setting: methotrexate growth selection, single substitutions
With: (+)-ABA 710 µM
Reference: wild-type fitted maximum
Reading: higher = stronger binding
Parent: PYL1, truncated, DHFR fusion (Arabidopsis thaliana); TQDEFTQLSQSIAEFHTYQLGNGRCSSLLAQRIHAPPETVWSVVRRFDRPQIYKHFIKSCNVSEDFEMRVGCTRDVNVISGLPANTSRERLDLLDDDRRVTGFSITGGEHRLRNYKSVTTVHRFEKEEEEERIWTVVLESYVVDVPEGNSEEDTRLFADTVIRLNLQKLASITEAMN
Variant	relative binding score
T135I	18.7%
R88A	101%
V62H	85.3%
E151D	101%
T73P	60.8%
T101Q	72.9%
D144R	75.1%
F5M	106%

Some of these lines once more (study 3):
Variant	binding free energy change
G63M	0.305 kcal/mol
P11A	0.0411 kcal/mol
E100R	-0.0652 kcal/mol
Q31P	-0.175 kcal/mol
S83N	-0.131 kcal/mol
